Measurements gathered from unrelated publications.
A part holds a random share of what one study measured.

Block 1
Target: Histone acetyltransferase KAT6A, winged helix 1, GST fusion (KAT6A, Homo sapiens, UniProt Q92794, residues 1-85)
Method: protein binding microarray
Form: double-stranded DNA, one strand shown
Matrix: in vitro
Tested at: not given
Setting: 8-mer, flanks averaged, mean of 2 arrays, mostly near background
Relative to: not given
Reading: higher = stronger binding
Residues (chain): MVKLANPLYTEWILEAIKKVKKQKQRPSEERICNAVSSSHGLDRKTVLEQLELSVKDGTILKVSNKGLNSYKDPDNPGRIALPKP
For `CGTCCCAG`, the E-score was -0.129.
`CGTCTGAG` has an E-score of 0.00319.
The E-score of `GCTGTGCA` is reported as 0.0341.
The E-score of `CTGCTTAC` is reported as -0.164.
With `GCTGCTAC` the E-score was 0.0645.

Block 2
Target: Sal-like protein 4, full length isoform A (SALL4, Homo sapiens, UniProt Q9UJQ4, residues 1-1053)
UniProt Q9UJQ4, sequence (whole entry, looked up): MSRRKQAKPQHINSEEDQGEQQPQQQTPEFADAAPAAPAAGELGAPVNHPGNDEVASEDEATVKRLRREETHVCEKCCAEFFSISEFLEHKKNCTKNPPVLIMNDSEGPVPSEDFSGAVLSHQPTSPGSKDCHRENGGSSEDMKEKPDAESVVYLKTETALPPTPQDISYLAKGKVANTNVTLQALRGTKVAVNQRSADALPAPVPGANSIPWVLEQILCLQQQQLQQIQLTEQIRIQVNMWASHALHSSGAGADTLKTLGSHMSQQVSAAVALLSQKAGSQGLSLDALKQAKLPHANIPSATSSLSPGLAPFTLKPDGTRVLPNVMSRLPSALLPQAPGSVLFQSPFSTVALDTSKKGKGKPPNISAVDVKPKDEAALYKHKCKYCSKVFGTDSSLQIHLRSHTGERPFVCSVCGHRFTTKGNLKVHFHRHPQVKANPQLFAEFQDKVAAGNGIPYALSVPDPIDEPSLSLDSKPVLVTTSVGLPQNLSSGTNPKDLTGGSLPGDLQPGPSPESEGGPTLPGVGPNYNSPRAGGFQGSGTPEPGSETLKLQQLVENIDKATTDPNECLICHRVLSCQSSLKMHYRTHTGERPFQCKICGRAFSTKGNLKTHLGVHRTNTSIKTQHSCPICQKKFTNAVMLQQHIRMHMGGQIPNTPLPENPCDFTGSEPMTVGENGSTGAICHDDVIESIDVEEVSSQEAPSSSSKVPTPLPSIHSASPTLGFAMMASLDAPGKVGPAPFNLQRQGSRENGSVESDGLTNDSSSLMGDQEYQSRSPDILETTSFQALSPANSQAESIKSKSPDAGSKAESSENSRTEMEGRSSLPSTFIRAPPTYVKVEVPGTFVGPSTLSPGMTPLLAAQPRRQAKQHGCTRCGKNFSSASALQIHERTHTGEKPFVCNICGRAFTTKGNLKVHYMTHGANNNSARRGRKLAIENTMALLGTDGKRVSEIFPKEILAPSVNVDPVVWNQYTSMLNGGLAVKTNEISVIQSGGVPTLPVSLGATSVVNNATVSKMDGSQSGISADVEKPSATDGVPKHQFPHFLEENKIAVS
Method: universal PBM
Form: double-stranded DNA, one strand shown
Matrix: in vitro
Tested at: 600 nM
Setting: 8-mer, flanks averaged, mean of replicates
Reading: higher = stronger binding
With `ACCGCTCT` the E-score was -0.157.
The E-score of `AAGTGCGG` is reported as -0.0293.
`CGCGAAAG` gave an E-score of -0.182.
With `CAAACAGC` the E-score was 0.0252.
For `AAGCACCA`, the E-score was -0.125.
For `TCCTAGAA`, the E-score was 0.065.

Block 3
Target: Protein max, full length (MAX, Homo sapiens, UniProt P61244-2, residues 1-151)
Method: protein-binding microarray
Form: double-stranded DNA, one strand shown
Matrix: in vitro
Tested at: not given
Setting: k-mer, scored over probes, only values ≥0.25
Reading: higher = stronger binding
The E-score of `CACGCTCA` is reported as 0.327.
`CACGTGTC` gave an E-score of 0.495.
For `ATTCATGC`, the E-score was 0.289.
With `ACACGCTA` the E-score was 0.34.
The E-score of `CGCGTGGA` is reported as 0.45.
With `CCCCTCCC` the E-score was 0.25.
The E-score of `CGTGGGAG` is reported as 0.307.
With `CAGCGTGA` the E-score was 0.428.

Single results of other studies
For `PhoQ, residues 284 288 289 292 302 303 ASHLAV`, the fold induction was 15 (PhoP, residues 12 14 15 18 19 QQAYL (Escherichia coli, UniProt P23836); Sort-seq, item: YFP reporter; E. coli; PhoQ-PhoP variant library, together with: 10 µM Mg2+; relative to: high Mg2+ state, higher = stronger signaling).

Some of these lines once more (block 3):
The E-score of `CACGCTCA` is reported as 0.327.
The E-score of `CGTGGGAG` is reported as 0.307.
